Assay results pooled from the literature.
Compare with care: the assays were run in different laboratories. Numbers after ± are the reported error.

| Molecule | cell line | test | setting | scale | IC50 |
| --- | --- | --- | --- | --- | --- |
| COc1cc(/C=C/C(=O)N2CCC=CC2=O)cc(OC)c1OC | pStat3-high breast cancer lines | anchorage-independent growth | 16 h | – | 2.8 to 12.9 µM |
| Pinoresinol | fibroblast | MTT | 24 h | – | 650 µM |
| COc1cc(O)c2c(c1)O[C@H](c1ccc(O)cc1)CC2=O | BV-2 | NO release, Griess | 24 h, with: LPS 10 µg/mL + nicotine 1 µM | – | 16.9 µM |
| O=C1c2c(O)ccc(O)c2C(=O)c2c(NCCNCCO)ccc(NCCNCCO)c21 | HCT-15 | cell growth or viability, XTT | 72 h | – | 0.087 µg/mL |
| COc1cc2ncnc(Nc3ccc(F)c(Cl)c3)c2cc1NC(=O)N/N=C/c1ccc(CN2CCOCC2)cc1 | NCI-H1975 | cell growth or viability, MTT | 72 h | – | > 100 µM |
| O=c1[nH]nc(O)c2c(-c3ccc(Cl)cc3Cl)c3n(c12)CCn1cccc1-3 | PC-3 | cell growth or viability, MTT | 48 h | – | 76.3 µM |
| COc1ccc(C[C@H]2COC(=O)[C@@H]2Cc2ccc(OCC(=O)Nc3ccc(C(=O)Nc4ccccc4N)cc3)c(OC)c2)cc1OC | Kasumi 1 | cell growth or viability, CCK-8 | 48 h | – | 0.86 µM |
| O=C(N/N=C/c1cnc(N2CCCC2)nc1)Nc1cc2c(Nc3ccc(F)c(Cl)c3)ncnc2cc1O[C@H]1CCOC1 | NCI-H1975 | cell growth or viability, MTT | 72 h | – | 1.72 µM |
| COc1cccc(/C=C/C(=O)/C=C/c2cccc(OC)c2OC)c1OC | SGC-7901 | cell growth or viability, MTT | 72 h | – | 2.5 µM |
| Clc1ccc2nc(-c3ccc(OCCN4CCOCC4)cc3)[nH]c2c1 | DND41 | cell growth or viability, MTS | 72 h | – | 39.3 µM |
| O=C(NCCCl)Nc1ccc(S(=O)(=O)Oc2cccnc2I)cc1 | HT-1080 | cell growth or viability, SRB | 48 h | – | 1.8 µM |
| CCOc1cc(C(C)(C)C)ccc1C1=N[C@@](C)(c2ccc(Cl)cc2)[C@@](C)(c2ccc(Cl)cc2)N1C(=O)N1CCN(CCCS(C)(=O)=O)CC1 | TP53 homozygous mutant glioma lines | cell proliferation, WST-1 | 72 h | relative to: TP53 wild-type lines | no effect |
| C(=N\Nc1nc(Nc2ccccc2)nc(N2CCOCC2)n1)/c1c[nH]c2ccccc12 | mouse Gmnn fl/fl ER-Cre ESCs | cell viability, trypan blue | 72 h | – | 1 µM |
| O=C(N/N=C/c1ccc(CN2CCCC2)cc1)Nc1cc2c(Nc3ccc(F)c(Cl)c3)ncnc2cc1O[C@H]1CCOC1 | NCI-H1975 | cell growth or viability, MTT | 72 h | – | > 100 µM |
| COc1ccc(/C=C/C(=O)/C(=C/C2=CC=C[CH]2[Fe][CH]2C=CC=C2)C(=O)/C=C/c2ccc(O)cc2)cc1OC (centres unmarked) | RKO | cell growth or viability, MTT | – | – | 7.29 µM |
| C[C@]1([N+](=O)[O-])C(=O)c2ccccc2O[C@@H]1CC(=O)NC12CC3CC(CC(C3)C1)C2 | PC-3M | cell growth or viability, SRB | 96 h | – | 7.31 µM |
| COc1ccc(C[C@H]2COC(=O)[C@@H]2Cc2ccc(OCCCCCC(=O)NO)c(OC)c2)cc1OC | Kasumi 1 | cell growth or viability, CCK-8 | 48 h | – | > 5 µM |
| CC(C)n1nc(C#Cc2cccc(NC(=O)c3cccc(C(F)(F)F)c3)c2)c2c(N)ncnc21 | Ba/F3 BCR-ABL | cell growth, MTT | 48 h | – | 0.008 µM |
| O=C(O)Cc1ccccc1Nc1c(Cl)cccc1Cl.c1cnc2c(c1)ccc1cccnc12 | CAL-27 | cell viability, MTT | 48 h | – | 3.19 ± 1.54 µM |
| CC(C)c1ncccc1OS(=O)(=O)c1ccc(NC(=O)NCCCl)cc1 | HT-1080 | cell growth or viability, SRB | 48 h | – | 3.8 µM |

| Molecule | cell line | test | setting | scale | IC50 |
| --- | --- | --- | --- | --- | --- |
| CCN(CC)CCOc1ccc(-c2nc3ccc(F)cc3[nH]2)cc1 | DND41 | cell growth or viability, MTS | 72 h | – | 43.4 µM |
| O=C1C=C2CCC(F)(F)CC2C(=O)C1 (centres unmarked) | rat Synovial cell | cell growth or viability, CCK-8 | 48 h | – | 2.54 µM |
| CC(C)Oc1ccc(C(=O)Cn2ccnc2)cc1-n1c(CN2CCN(C(=O)COc3ccc(Cl)cc3)CC2)nc2ccccc2c1=O | SU-DHL-5 | cell viability, CellTiter-Glo | 24 h | – | < 0.1 µM |
| Cn1cc(CN2CCN(c3ncc(C(=O)NO)cn3)CC2)c2ccccc21 | HEL | – | 24 h | – | 0.162 ± 0.00212 µM |
| CC(C)c1cc(CNc2nc(Nc3cc(C4CC4)[nH]n3)cc(N3CCN(C)CC3)n2)on1 | primary CLL cells | protein level decrease, flow cytometry | 24 h, OP9 stromal co-culture | – | 2.96 µM |
| O=C(Cc1ccc(C(F)(F)F)cc1)Nc1nc2ccccc2n1Cc1ccc(Br)cc1 | MDA-MB-231-HRE-Luc cells | HIF reporter gene, inhibitor | 24 h, hypoxia 1% O2 | – | 1.53 ± 0.78 µM |
| Cc1ccc(C(CS(=O)(=O)c2ccccc2)=NNC2=NC(=O)C(=NNc3ccccc3)S2)cc1 | WM 266-4 | cell growth or viability, MTT | 48 h | – | 6.18 µM |
| [Ala11,D-Leu15]orexin B | rat cortical primary neurons | cAMP formation, antagonist | 15 min, with: forskolin 1 µM | – | 0.042 ± 0.002 µM |
| O=C(COc1ccc(-c2nc3ccc(Cl)cc3[nH]2)cc1)N1CCOCC1 | DND41 | cell growth or viability, MTS | 72 h | – | 34 µM |
| COc1cc(O)c2c(=O)c(O)c(-c3ccc(O)c(O)c3)oc2c1 | BV-2 | NO release, Griess | 24 h, with: LPS 10 µg/mL | – | 26.4 µM |
| COc1ccc(OC)c(/C=C2\CC/C(=C\c3ccc(O)c(OC)c3)C2=O)c1 | SGC-7901 | cell growth or viability, MTT | 72 h | – | 3.9 µM |
| COC1=CC(=O)c2c(ccc3cc(OC)c(OC)c(OC)c23)C1=O | BV-2 | NO release, inhibitor, Griess | LPS-stimulated | – | 9.95 µM |
| O=C(NCCCl)Nc1ccc(S(=O)(=O)Oc2cccnc2Br)cc1 | HT-1080 | cell growth or viability, SRB | 48 h | – | 3.8 µM |
| Clc1ccc2nc(-c3ccc(OCc4cn(CCN5CCOCC5)nn4)cc3)[nH]c2c1 | DND41 | cell growth or viability, MTS | 72 h | – | > 100 µM |
| COc1c(-c2coc3cc4c(cc3c2=O)CC(OC(C)=O)C(C)(C)O4)ccc2c1C=CC(C)(C)O2 (centres unmarked) | human primary myometrial cells | calcium mobilisation, inhibitor | – | – | 14 µM |
| Nc1cc(F)ccc1NC(=O)c1ccc(CNC(=O)/C=C/c2cccnc2)cc1 | Kasumi 1 | cell growth or viability, CCK-8 | 48 h | – | > 5 µM |
| CCN(CC)CCOc1ccc(-c2nc3ccc(Cl)cc3[nH]2)cc1F | DND41 | cell growth or viability, MTS | 72 h | – | 2.6 µM |
| CCC(=O)c1cc(O)c2ccccc2c1O | HS27 | cell growth or viability, MTS | 72 h | – | > 10 µM |
| CC(C)(C)NC(=O)C[C@H]1Oc2ccccc2C(=O)[C@]1(C)[N+](=O)[O-] | PC-3 | cell growth or viability, SRB | 96 h | – | 10 µM |
| Fc1cc(-c2nc3ccc(Cl)cc3[nH]2)ccc1OCc1cn(CCN2CCOCC2)nn1 | DND41 | cell growth or viability, MTS | 72 h | – | > 100 µM |

| Molecule | cell line | test | setting | scale | IC50 |
| --- | --- | --- | --- | --- | --- |
| CC(C)c1ccc(/C=C/C(=O)C(=CC2=CC=C[CH]2[Fe][CH]2C=CC=C2)C(=O)/C=C/c2ccc(C(C)C)cc2)cc1 (centres unmarked) | RKO | cell growth or viability, MTT | – | – | 108 µM |
| CN1CCN(CCCOc2ccc(/C=N/NC(=O)Nc3cc4c(Nc5ccc(F)c(Cl)c5)ncnc4cc3O[C@H]3CCOC3)cc2)CC1 | NCI-H1975 | cell growth or viability, MTT | 72 h | – | 6.23 µM |
| O=C(/C=C/c1ccc(F)cc1)C(=CC1=CC=C[CH]1[Fe][CH]1C=CC=C1)C(=O)/C=C/c1ccc(F)cc1 (centres unmarked) | RKO | cell growth or viability, MTT | – | – | 5.08 µM |
| CCN(CC)CCCOc1ccc(/C=N/NC(=O)Nc2cc3c(Nc4ccc(F)c(Cl)c4)ncnc3cc2O[C@H]2CCOC2)cc1 | NCI-H1975 | cell growth or viability, MTT | 72 h | – | 1.53 µM |
| O=C1C(SCCO)=C(SCCO)C(=O)c2ccccc21 | hiPSC hepatic differentiation phase III | cell viability, CCK-8 | 48 h | – | 83 ± 13.5 µM |
| CCCCCCCCCCCCCC(=O)OC[C@H](COP(=O)([O-])OCC[N+](C)(C)C)OC(=O)CCCCCCCCCCCCC | HT-1080 | cell growth or viability, MTT | 72 h | – | 20 µM |
| COc1cccc2c1C(=O)c1c(O)c3c(c(O)c1C2=O)C[C@@](O)(C(=O)CO)C[C@@H]3O[C@H]1C[C@H](N)[C@H](O)[C@H](C)O1 | HCT-15 | cell growth or viability, XTT | 72 h | – | 0.252 µg/mL |
| CN(C)Cc1ccc(/C=N/NC(=O)Nc2cc3c(Nc4ccc(F)c(Cl)c4)ncnc3cc2O[C@H]2CCOC2)cc1 | NCI-H1975 | cell growth or viability, MTT | 72 h | – | 40.3 µM |
| COc1ccc(C[C@H]2COC(=O)[C@@H]2Cc2ccc(OCc3cn(CC(=O)Nc4ccccc4N)nn3)c(OC)c2)cc1OC | Kasumi 1 | cell growth or viability, CCK-8 | 48 h | – | > 5 µM |
| CN(C)c1ccc(/C=N/NC(=O)Nc2cc3c(Nc4ccc(F)c(Cl)c4)ncnc3cc2O[C@H]2CCOC2)cc1 | NCI-H1975 | cell growth or viability, MTT | 72 h | – | 12.3 µM |
| COc1cc2[nH]c(C)c(-c3ccc(-c4ccc(OC(F)(F)F)cc4)cc3)c(=O)c2cc1Cl | HeLa and HCT-116 average | cell viability, MTT | 48 h | – | 30 µM |
| CC/C(=C(\c1ccccc1)c1ccc(OCCN(C)CCOCCOCCOc2ccc3[nH]cc(CCNC(C)=O)c3c2)cc1)c1ccccc1 | HT-1080 | cell survival, MTT | day 9, dosed days 2, 4, 7 | – | 5.9 µM |
| O=C(/C=C/c1ccc(O)cc1)C(=CC1=CC=C[CH]1[Fe][CH]1C=CC=C1)C(=O)/C=C/c1ccc(O)cc1 (centres unmarked) | RKO | cell growth or viability, MTT | – | – | 7.66 µM |
| navitoclax | human platelets | cell viability, MTS | 48 h | – | 0.242 µM |
| CC(=O)c1cc([N+](=O)[O-])c(Sc2cccc(Cl)c2Cl)s1 | MM.1R | cell viability | 48 h | – | 6 to 14 µM |
| CSc1cc(Oc2ccnc3[nH]c(=O)cnc23)ccc1NC(=O)Nc1cc(C(C)(C)C)nn1-c1ccc(C)cc1 | WM 266-4 | ERK1/2 phosphorylation, inhibitor, cell-based ELISA | 6 h | – | 0.005 ± 0.002 µM |
| CN1CCC2(CC1)C/C(=N\N=C\c1ccc(O)cc1)c1ccccc1O2 | MCF7, HCT-116, PC-3, A549 | cell growth, MTT | range over cell lines | – | 2.02 to 23.2 µM |
| C[C@]1(N)C(=O)c2cc(F)ccc2O[C@@H]1CC(=O)NC12CC3CC(CC(C3)C1)C2 | PC-3M | cell growth or viability, SRB | 96 h | – | > 50 µM |
| CC[n+]1c(/C=C/C=C2/N(C)c3ccccc3C2(C)C)sc2ccccc21 | hiPSC hepatic differentiation phase II | cell viability, CCK-8 | 48 h | – | 2.16 ± 0.25 µM |
